Measured values pooled from the literature.
Every numbered part comes from another study and shows a few of its results, in no order. Changes are numbered by the printed parent chain.

Study 1
Target: RNA binding protein fox-1 homolog 2, RRM domain, GST-SBP tag (RBFOX2, Homo sapiens, UniProt O43251-10, residues 100-194)
Technique: RNA Bind-n-Seq
Molecule type: RNA
Medium: in vitro
Tested at: 365 nM
Notes: natural RNA segment, single round, ends assumed
Relative to: no-protein control
Direction: higher = stronger binding
Shared flanks, not repeated: GGGAGUUCUACAGUCCGACGAUC … UGGAAUUCUCGGGUGCCAA
Target sequence (chain): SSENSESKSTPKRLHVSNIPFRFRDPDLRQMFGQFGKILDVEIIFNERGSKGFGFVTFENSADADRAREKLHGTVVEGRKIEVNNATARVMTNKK
| Oligonucleotide | RBNS enrichment (R) |
| --- | --- |
| CCUCUUCCUCUGCCGGGAGGGUGUUUUCAACUCCAAACCCCAGAGAGGGGUUGUAGAUUGGGUCCAGCUUUGCUUCAGUGUGUGGAAAUGUCUCGUGGGGUGGCAUCGGG | 1.26 |
| GUAAGGCAGCUUGUUGGCCCUUGUUACAGUAUCUUAGUGUACCCUCCUGUUACAGCUUCCACACUCAGCCGGCUUGCUUCAGUAUUUUUGCUUCCUGUAUAUUCUUAUAC | 3.03 |
| GAAGGCAGGUGGGAGGGAAAGGAAGGGGCACAGCCCUAUUUCUUCCUACCUGCUAGGACAAGGUGGAAGAGUGUAUCUGGGGUGGGAAGGAGGGCUUCCCCUCUCUGCUG | 0.661 |
| UCUCUGAACAUGUAUGUUGCCCAUGGUGGGAGCGUGGUCACUGUGCAGUUGUGCACAGAUGUCUUUCCUUUACCGUUGGCCUUUCUGUCUGCCUCUCCUUCCUCUCUGCA | 2.14 |
| UUUUUGGCUGUCAUUUCAAAAGUGGAAUAAAUUUAUUAAUUUAGUAGUACUAAAUGGUAUCCUUAGAUUAAAAUUUUGUGCUUGAUAACAGCUGUUUUUUCUACAUUAGA | 0.474 |
| AGUGCAGAUCCCCAUUUGCAGUAAGAUUGUACCUCAGCGGUACAAUUCCUCACCAAGGAAGUGGCUGCAGGGACACUGGUGCCACGGCUCCUGGGCCAGCCCUUAUGUCU | 0.334 |
| GUGCCUGACUAGGGAGCCCUCCCAUUGCCUUCCUGGCCCGGGAUAGAAGAGGGGAGGUAAGUCUGGGGGCUACGAAGCCGGGCCCCCACACCCUGGCUGAAGUCAGCUUG | 0.301 |
| GCUAUGGGGAAGGGAGGUUGUGCGGAUCUUGACUCUAGGGCAGAACAGAUCUAACCAUGCAUUGCUAGCUCUGCUCCCAGCAUCCCUUCCCCUUCUCUCCUCCUCUGCCU | 0.507 |
| CCAGGAGUGAAGGCAGAUUUAGGGAAAUAAACAUUGUGUGUUAAAUCUUUUACUGACCUGGGUUUUCUCCUGGUUUACGUCUGUCUUUUGUAAAUCAAUAAUUACAAGGA | 0.384 |
| AACCUUUAAACUUAAAAUUGAUUACAUUGAGCCUAUUCAGAAAAAAAAUUAUAUAGGUUCUGAUGAAAGCUUCAUAAUUUCACCCUGUGACUAUCCUGAAAAGAAAUAAU | 0.834 |
| CUUAAUUCAUAGCUGUCCUUGAUUUCAUAUUUGUUUGCAUUUAAUUUAUGUUUCUUUGGAUCCUCAUUGCCUCAAAGCAGCAUACUUAAUUUUUGUUUAUUUAUUGUGAG | 4.5 |
| UAUUGUGUAGACCUUGAAAACCACGGUUUCAGUGAAGAAGGAUUCUGUAGGGUUCACUCUUCUGCAGUCACUUUAGCUUUCUGCAGAAGUCUAGAUUUUAAAUUAACUGU | 0.426 |

Study 2
Target: CCNA1, cyclin fold, Cln2 fusion (human)
Technique: yeast growth competition, sequencing
Medium: yeast
Notes: weak parent motif
Relative to: not given
Direction: higher = stronger binding
Starting sequence: INSM1 docking peptide (human); PKAIRKLHFEDEV; partner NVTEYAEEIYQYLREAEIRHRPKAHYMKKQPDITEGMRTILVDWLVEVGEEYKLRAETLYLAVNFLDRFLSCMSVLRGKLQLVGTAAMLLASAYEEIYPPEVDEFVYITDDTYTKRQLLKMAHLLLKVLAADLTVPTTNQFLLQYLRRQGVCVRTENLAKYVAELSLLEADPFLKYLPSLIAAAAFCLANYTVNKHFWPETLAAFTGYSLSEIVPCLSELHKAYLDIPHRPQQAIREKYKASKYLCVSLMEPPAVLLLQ
| Substitution | normalised enrichment score |
| --- | --- |
| PKAFRKLHFEDEV [I4F] | 0.576 |
| PKAIMKLHFEDEV [R5M] | 0.273 |
| PTAIRKLHFEDEV [K2T] | 0.941 |
| PKAWRKLHFEDEV [I4W] | 0.507 |
| PKAIRKLHFSDEV [E10S] | 0.699 |
| PKAIRKLHFEDLV [E12L] | 0.818 |
| PKAILKLHFEDEV [R5L] | 0.0264 |
| PKAIRKLAFEDEV [H8A] | 0.463 |
| PKAIRKDHFEDEV [L7D] | -0.143 |
| PKAIRKLRFEDEV [H8R] | 0.412 |
| PKAIRKLHDEDEV [F9D] | -0.0499 |
| PKAICKLHFEDEV [R5C] | -0.128 |
| PKTIRKLHFEDEV [A3T] | 0.307 |
| PKAIRKLWFEDEV [H8W] | 0.137 |
| PYAIRKLHFEDEV [K2Y] | 0.156 |
| PKAIRKVHFEDEV [L7V] | 0.339 |
| PKAIRKWHFEDEV [L7W] | -0.0515 |
| PKAIRKLHFEDWV [E12W] | 0.395 |
| PKAIRKLLFEDEV [H8L] | 0.527 |
| PHAIRKLHFEDEV [K2H] | 0.408 |
| PKAIRKLHFVDEV [E10V] | 0.105 |
| PKAIRKLHFEDYV [E12Y] | 0.247 |
| PVAIRKLHFEDEV [K2V] | 0.23 |
| PKAIRKLHFEKEV [D11K] | 0.666 |
| PKVIRKLHFEDEV [A3V] | 0.934 |

Study 3
Target: TEF, bZIP domain (human)
Technique: DHFR protein complementation
Medium: yeast
Notes: single substitutions, most at no-binding floor
Relative to: wild-type JUN-FOS pair
Direction: higher = stronger binding
Starting sequence: JUN, bZIP domain (human); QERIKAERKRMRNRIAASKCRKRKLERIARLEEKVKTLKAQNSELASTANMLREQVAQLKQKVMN; partner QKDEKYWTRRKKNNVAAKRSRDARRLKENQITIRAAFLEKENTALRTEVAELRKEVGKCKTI
| Substitution | binding fitness [natural log] |
| --- | --- |
| Q41G | -1.55 |
| T48C | -1.33 |
| E33V | -1.32 |
| R53F | -1.18 |
| K39R | -1.25 |
| R53C | -1.43 |
| E54H | -1.43 |
| A40G | -1.38 |
| R30T | -1.4 |
| E33M | -1.46 |
| A29I | -1.47 |
| A57L | -1.26 |
| T48Q | -1.43 |
| E44D | -1.3 |
| E33W | -1.5 |
| R30G | -1.39 |
| E33F | -1.25 |
| N42A | -1.5 |

Study 4
Target: Interferon regulatory factor 7, full length, phosphomimetic (IRF7, Homo sapiens, UniProt Q92985, residues 1-503, S471D/S472D/S475D/S476D/S477D/S483D/S484D/S487D)
Technique: protein-binding microarray
Molecule type: double-stranded DNA, one strand shown
Medium: in vitro
Tested at: 2200 nM top
Notes: 60-bp whole probe
With: salmon DNA 0.4 mg/ml
Relative to: random background probes
Direction: higher = stronger binding
Shared flanks, not repeated: GCCTAGCAC … GTCTTGATTCGCTTGACGCTGCTG
Construct (chain): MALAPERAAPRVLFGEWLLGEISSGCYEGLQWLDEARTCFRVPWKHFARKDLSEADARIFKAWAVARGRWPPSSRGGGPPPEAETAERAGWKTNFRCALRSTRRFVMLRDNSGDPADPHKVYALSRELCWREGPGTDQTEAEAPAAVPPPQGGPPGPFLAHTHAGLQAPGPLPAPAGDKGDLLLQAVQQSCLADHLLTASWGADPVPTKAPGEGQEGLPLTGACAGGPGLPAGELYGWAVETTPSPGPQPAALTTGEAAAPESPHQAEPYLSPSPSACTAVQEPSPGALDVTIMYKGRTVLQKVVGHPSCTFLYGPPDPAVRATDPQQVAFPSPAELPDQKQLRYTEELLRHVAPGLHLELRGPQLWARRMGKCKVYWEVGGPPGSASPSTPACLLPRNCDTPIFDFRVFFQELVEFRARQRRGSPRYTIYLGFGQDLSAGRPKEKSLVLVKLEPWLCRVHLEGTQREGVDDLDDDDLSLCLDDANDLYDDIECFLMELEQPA
| Oligonucleotide | fitted relative affinity [z-score] |
| --- | --- |
| TCAACTCCAGTTCTGGGACTGTGCTAG | 0.463 |
| GGCCCAGGAGGAGGCCCCTCGTGCTAG | -1.67 |
| ACTAATTTCCATTTTCTAAAGTGCTAG | 3.39 |
| GACGATCTCAGTCTCGAGCCGTGCTAG | 0.0116 |
| TTAGGATTCCTTCTCCTTTAGTGCTAG | 1.18 |
| ATCTTTTTCCCTATTATATAGTGCTAG | 2.33 |
| TTAGATATCCGGTATCGATTAGTGCTA | 0.281 |
| TTAGAACTGAGTCTCGATTGGTGCTAG | 0.103 |
| TTAGGTTTCGGGATCGGTTAGTGCTAG | 5.89 |
| GACGAACGGAGTTTCGAGACGTGCTAG | 2.32 |
| GACGGACCGGGGTTTCGGGACGTGCTA | 0.243 |
| TTAGGTATCCTTCTCTTTTAGTGCTAG | 1.18 |
| TTAGGTATCGGTATCTGTTAGTGCTAG | 1.15 |
| GACGATTTCAGTCTAGAGACGTGCTAG | 0.625 |
| AAATTCTGATATAATTCAAAGTGCTAG | -0.739 |
| TCAGGTCTCCCTTGAGGACTGTGCTAG | 0.13 |
| GACGATTGCAGTATCGAGACGTGCTAG | 0.267 |
| GACGGTATCATACTGCTGACGTGCTAG | 0.523 |

Study 5
Target: Prothrombin, mature alpha-thrombin (F2, Homo sapiens, UniProt P00734)
Technique: aptamer microarray, sandwich
Molecule type: DNA with 2'F-ANA
Medium: in vitro
Tested at: 200 nM
Notes: whole 15-mer aptamer, many near background
With: Cy3 exosite-II aptamer, 400 nM
Direction: higher = stronger binding
Oligonucleotide: GGTTGGTGTGGTTGG
| Modification | mean fluorescence intensity [a.u.] |
| --- | --- |
| 2'F-ANA at 1 2 3 4 7 8 12 14 | 112 |
| 2'F-ANA at 4 5 6 8 10 11 15 | 47.4 |
| 2'F-ANA at 3 4 5 7 9 13 14 | 52.5 |
| 2'F-ANA at 1 2 3 4 5 7 9 10 12 13 14 15 | 45.4 |
| 2'F-ANA at 2 5 6 13 | 82.5 |
| 2'F-ANA at 1 3 4 6 8 9 10 11 12 14 | 61.3 |
| 2'F-ANA at 4 5 7 9 10 11 12 13 14 15 | 55.2 |
| 2'F-ANA at 3 4 5 6 7 9 10 12 15 | 59.9 |
| 2'F-ANA at 2 4 5 6 11 12 | 109 |
| 2'F-ANA at 1 4 5 9 11 12 13 14 15 | 47.8 |
| 2'F-ANA at 1 6 9 13 15 | 122 |
| 2'F-ANA at 1 2 8 10 14 | 47.5 |
| 2'F-ANA at 1 7 11 14 15 | 68.5 |
| 2'F-ANA at 1 7 8 9 10 11 15 | 55.1 |
| 2'F-ANA at 5 7 9 13 15 | 52.4 |
| 2'F-ANA at 1 3 4 5 6 11 12 13 | 170 |
| 2'F-ANA at 1 2 3 5 6 9 10 11 12 13 | 52.2 |
| 2'F-ANA at 1 3 5 6 8 11 12 13 15 | 79.9 |
| 2'F-ANA at 1 4 5 6 7 8 10 11 13 | 54.1 |
| 2'F-ANA at 1 4 6 9 10 11 14 15 | 74.7 |
| 2'F-ANA at 2 3 4 11 13 14 | 257 |

Repeated from above (study 4):
| Oligonucleotide | fitted relative affinity [z-score] |
| --- | --- |
| TTAGGTTTCGGGATCGGTTAGTGCTAG | 5.89 |
| GACGAACGGAGTTTCGAGACGTGCTAG | 2.32 |
| GACGGACCGGGGTTTCGGGACGTGCTA | 0.243 |
| TTAGGTATCCTTCTCTTTTAGTGCTAG | 1.18 |
| TTAGGTATCGGTATCTGTTAGTGCTAG | 1.15 |
| GACGATTTCAGTCTAGAGACGTGCTAG | 0.625 |
| AAATTCTGATATAATTCAAAGTGCTAG | -0.739 |
| TCAGGTCTCCCTTGAGGACTGTGCTAG | 0.13 |
| GACGATTGCAGTATCGAGACGTGCTAG | 0.267 |
